Measured values collected from several papers.
Parts stem from different laboratories: compare values within a part only.
UniProt Q8IYT8, sequence (whole entry, looked up): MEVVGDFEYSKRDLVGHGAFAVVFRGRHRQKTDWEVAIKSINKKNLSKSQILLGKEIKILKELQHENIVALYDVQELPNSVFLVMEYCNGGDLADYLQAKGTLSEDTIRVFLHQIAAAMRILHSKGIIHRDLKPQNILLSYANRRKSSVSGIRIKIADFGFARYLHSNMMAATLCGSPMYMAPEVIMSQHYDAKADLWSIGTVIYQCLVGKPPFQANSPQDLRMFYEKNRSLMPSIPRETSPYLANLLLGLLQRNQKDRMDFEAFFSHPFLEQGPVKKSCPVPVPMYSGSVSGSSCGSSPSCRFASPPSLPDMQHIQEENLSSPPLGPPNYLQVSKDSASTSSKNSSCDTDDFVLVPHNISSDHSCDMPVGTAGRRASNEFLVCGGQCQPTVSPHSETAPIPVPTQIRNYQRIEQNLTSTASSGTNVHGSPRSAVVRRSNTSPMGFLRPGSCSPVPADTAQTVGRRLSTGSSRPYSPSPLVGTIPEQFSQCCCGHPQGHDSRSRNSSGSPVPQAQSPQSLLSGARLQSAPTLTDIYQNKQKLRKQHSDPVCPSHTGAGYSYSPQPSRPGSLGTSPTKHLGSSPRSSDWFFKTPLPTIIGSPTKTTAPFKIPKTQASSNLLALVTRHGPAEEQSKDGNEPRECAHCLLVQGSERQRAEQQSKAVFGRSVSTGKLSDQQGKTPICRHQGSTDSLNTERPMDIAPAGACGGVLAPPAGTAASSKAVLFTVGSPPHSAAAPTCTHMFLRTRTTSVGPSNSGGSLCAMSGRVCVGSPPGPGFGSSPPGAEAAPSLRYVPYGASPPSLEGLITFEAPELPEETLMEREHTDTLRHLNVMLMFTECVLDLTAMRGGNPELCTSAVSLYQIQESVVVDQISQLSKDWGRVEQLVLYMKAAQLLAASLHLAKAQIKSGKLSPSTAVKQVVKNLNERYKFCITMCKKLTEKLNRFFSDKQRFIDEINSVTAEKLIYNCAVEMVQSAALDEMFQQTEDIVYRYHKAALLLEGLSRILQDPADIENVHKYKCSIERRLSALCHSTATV
UniProt P27361, sequence (whole entry, looked up): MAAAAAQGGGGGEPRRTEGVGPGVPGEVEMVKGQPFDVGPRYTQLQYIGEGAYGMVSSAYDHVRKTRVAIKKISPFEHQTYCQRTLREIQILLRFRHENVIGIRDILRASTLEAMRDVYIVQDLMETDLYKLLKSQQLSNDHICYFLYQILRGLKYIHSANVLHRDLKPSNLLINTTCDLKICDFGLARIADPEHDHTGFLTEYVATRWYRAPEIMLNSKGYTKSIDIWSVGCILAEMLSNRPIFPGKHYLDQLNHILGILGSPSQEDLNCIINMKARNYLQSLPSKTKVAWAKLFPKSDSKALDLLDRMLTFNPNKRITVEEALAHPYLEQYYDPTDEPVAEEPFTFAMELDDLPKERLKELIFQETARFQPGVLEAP
UniProt P49137, sequence (whole entry, looked up): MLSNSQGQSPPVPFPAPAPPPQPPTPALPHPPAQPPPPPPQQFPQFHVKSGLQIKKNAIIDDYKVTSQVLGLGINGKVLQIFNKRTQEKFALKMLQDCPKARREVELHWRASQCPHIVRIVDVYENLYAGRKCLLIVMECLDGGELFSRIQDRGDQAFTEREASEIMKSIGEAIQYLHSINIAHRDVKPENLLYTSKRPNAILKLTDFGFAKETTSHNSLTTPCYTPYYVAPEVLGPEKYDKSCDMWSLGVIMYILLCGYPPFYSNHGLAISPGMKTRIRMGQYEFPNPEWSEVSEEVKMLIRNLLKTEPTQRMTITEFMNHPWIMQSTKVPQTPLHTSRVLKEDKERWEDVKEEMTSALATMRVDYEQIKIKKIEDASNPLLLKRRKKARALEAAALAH
UniProt P62344, sequence (whole entry, looked up): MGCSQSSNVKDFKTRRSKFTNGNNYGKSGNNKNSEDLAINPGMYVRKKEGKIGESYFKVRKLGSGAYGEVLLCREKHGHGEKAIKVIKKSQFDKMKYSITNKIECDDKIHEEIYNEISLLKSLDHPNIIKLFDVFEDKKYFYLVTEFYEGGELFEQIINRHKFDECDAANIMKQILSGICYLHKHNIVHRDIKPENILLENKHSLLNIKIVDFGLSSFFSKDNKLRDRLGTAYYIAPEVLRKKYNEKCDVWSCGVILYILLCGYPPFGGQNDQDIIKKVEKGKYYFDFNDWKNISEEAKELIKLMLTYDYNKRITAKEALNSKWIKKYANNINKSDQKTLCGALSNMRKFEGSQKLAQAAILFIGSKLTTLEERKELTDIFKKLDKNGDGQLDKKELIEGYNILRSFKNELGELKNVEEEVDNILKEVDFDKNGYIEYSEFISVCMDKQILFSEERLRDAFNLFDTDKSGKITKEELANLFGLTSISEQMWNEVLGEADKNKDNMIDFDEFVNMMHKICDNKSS
UniProt P9WI81, sequence (whole entry, looked up): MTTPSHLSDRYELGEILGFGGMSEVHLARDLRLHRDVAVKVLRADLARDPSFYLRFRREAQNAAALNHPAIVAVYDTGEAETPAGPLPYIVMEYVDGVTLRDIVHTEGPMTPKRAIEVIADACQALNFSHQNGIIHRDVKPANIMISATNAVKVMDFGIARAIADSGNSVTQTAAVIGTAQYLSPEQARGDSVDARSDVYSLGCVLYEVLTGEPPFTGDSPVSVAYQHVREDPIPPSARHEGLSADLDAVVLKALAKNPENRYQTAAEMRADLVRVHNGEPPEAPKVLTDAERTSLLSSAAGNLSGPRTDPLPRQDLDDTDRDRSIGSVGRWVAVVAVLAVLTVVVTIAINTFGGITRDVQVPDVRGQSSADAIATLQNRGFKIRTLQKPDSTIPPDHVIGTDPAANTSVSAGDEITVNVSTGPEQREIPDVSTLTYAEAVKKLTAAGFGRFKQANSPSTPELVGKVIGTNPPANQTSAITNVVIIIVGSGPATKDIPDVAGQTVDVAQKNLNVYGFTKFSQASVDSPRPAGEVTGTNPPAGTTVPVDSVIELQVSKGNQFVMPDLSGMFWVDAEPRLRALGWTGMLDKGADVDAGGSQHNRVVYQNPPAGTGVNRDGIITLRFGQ
UniProt Q99683, sequence (whole entry, looked up): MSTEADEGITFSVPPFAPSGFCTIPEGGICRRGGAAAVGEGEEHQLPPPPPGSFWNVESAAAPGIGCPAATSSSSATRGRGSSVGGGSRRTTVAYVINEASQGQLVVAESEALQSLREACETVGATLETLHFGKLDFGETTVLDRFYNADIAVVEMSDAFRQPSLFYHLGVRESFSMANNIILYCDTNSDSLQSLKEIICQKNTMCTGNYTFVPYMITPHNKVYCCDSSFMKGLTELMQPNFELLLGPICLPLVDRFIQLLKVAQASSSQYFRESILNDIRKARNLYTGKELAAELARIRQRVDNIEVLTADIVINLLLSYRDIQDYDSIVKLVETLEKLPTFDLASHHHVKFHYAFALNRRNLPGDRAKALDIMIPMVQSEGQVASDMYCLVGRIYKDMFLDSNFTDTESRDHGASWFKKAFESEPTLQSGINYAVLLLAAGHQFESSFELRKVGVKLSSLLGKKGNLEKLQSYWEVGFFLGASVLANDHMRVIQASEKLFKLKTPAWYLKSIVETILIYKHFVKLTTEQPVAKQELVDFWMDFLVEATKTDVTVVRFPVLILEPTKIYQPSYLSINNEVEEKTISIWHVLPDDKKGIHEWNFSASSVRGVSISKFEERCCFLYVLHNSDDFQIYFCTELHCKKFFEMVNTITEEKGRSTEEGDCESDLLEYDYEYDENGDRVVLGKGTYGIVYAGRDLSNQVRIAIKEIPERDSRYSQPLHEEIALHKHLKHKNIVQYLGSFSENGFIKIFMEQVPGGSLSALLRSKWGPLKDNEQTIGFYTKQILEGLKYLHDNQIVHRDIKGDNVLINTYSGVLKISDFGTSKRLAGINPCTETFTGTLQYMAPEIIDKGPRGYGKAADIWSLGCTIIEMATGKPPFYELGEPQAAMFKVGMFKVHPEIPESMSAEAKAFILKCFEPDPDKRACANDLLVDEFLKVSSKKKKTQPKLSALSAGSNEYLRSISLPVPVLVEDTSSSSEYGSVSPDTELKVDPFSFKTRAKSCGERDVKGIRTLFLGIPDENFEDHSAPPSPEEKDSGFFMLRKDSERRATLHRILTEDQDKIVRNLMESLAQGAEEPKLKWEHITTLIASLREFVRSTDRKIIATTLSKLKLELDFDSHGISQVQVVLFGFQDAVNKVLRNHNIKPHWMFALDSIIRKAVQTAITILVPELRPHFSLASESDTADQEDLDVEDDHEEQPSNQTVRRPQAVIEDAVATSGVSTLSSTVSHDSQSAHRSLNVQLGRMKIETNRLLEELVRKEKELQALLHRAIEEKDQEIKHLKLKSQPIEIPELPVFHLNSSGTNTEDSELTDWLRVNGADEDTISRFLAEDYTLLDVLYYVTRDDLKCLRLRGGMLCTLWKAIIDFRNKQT
UniProt P21673, sequence (whole entry, looked up): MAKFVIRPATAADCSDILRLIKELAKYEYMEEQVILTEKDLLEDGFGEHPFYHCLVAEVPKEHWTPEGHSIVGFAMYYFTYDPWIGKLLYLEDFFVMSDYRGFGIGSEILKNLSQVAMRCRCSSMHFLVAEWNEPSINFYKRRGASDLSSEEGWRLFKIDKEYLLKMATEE

Block 1
SMILES: O=C1NC(=O)c2c1c1c3ccccc3n3c1c1c2c2ccccc2n1[C@H]1CC[C@@H]3O1
Observed: enzyme activity
Mode: inhibitor
Tested at: 0.5 µM
Baseline: control
Measurement: remaining activity
MST1R (Homo sapiens, UniProt Q04912): 87.7%
MAP3K5 (Homo sapiens, UniProt Q99683): 56.2%
MAPK3 (Homo sapiens, UniProt P27361): 102%
ULK2 (Homo sapiens, UniProt Q8IYT8): 89.1%
TBK1 (Homo sapiens, UniProt Q9UHD2): 7.4%
FRK (Homo sapiens, UniProt P42685): 102%
MAPKAPK2 (Homo sapiens, UniProt P49137): 99.2%

Block 2
Cell line: HEK-293T-ACE2-TMPRSS2
Technique: cell count
Tested at: 10 µM
Measurement: viability
CCN(CC)CCNC(=O)c1c(C)oc2c1C(=O)c1ccccc1C2=O: 77%
N#CC(C#N)=NNc1ccc2c(c1)OCCO2: 65%
CN1CCN(Cc2c(O)ccc3cc(-c4nc5ccccc5[nH]4)c(=O)oc23)CC1: 66%
O=C(c1ccc(N2CC(O)C2)nc1)N1CCC(CCc2ccccc2)CC1: 65%
O=C(COc1cccnc1)N1CCCC2(CCNC2)C1 (centres unmarked): 76%
Cc1ccc(C)c(N2CCN(C(=O)CCCn3cnc4cc(S(=O)(=O)N(C)C)ccc43)CC2)c1: 66%
c1cc(OCCn2ccnc2)cc(-c2ccnc3[nH]ccc23)c1: 75%
COc1ccc(NC(=O)C2CCN(C(=O)C3Sc4ccccc4NC3=O)CC2)cc1 (centres unmarked): 66%

Other studies, line by line
Tspo: Translocator protein (Tspo, Rattus norvegicus, UniProt P16257)
UniProt P16257, sequence (whole entry, looked up): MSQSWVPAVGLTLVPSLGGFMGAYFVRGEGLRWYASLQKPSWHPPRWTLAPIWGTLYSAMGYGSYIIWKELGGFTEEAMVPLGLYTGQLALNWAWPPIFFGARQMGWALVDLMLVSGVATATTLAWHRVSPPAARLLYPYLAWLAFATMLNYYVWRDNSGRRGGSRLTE
CCC(=O)N[C@H]1CC[C@@H](C(=O)N(C)c2ccc(-c3nc4ccccc4o3)cc2)C1
remaining binding (pknB (Mycobacterium tuberculosis, UniProt P9WI81); cell-free assay, competition with immobilised ligand; 1 µM): 86%

c1cc2c(cc1[C@H]1OC[C@H]3[C@@H]1CO[C@@H]3c1ccc3c(c1)OCO3)OCO2
remaining activity (Diamine acetyltransferase 1 (Homo sapiens, UniProt P21673); inhibitor; 10 µM; baseline: control): 88.8%

COc1cc(-c2cn(C3CCc4ccccc4N(CC(F)(F)F)C3=O)nn2)ccc1-n1ccc(C)n1 (centres unmarked)
remaining binding (CDPK1 (Plasmodium falciparum, UniProt P62344); cell-free assay, competition with immobilised ligand; 1 µM): 99%

CNC(=O)c1cc(C(=O)NC2CC2)cn(Cc2ccccc2)c1=O
inhibition (Tspo; radioligand binding, radioligand displacement; 10 µM): 7.71%

Cc1c(N2CCNCC2)nc2ccc(Br)cc2c1C(=O)NC[C@H](CCC(=O)O)c1ccccc1Cl
inhibition (Tspo; radioligand binding, radioligand displacement; 10 µM): 20%

A few entries again (block 1):
FRK (Homo sapiens, UniProt P42685): 102%
